Experimental data from different studies.
± marks the error that the study gave. In brackets after ≈: the same amount, converted by molar mass.
Sequence of UniProt P11541 (whole entry, looked up): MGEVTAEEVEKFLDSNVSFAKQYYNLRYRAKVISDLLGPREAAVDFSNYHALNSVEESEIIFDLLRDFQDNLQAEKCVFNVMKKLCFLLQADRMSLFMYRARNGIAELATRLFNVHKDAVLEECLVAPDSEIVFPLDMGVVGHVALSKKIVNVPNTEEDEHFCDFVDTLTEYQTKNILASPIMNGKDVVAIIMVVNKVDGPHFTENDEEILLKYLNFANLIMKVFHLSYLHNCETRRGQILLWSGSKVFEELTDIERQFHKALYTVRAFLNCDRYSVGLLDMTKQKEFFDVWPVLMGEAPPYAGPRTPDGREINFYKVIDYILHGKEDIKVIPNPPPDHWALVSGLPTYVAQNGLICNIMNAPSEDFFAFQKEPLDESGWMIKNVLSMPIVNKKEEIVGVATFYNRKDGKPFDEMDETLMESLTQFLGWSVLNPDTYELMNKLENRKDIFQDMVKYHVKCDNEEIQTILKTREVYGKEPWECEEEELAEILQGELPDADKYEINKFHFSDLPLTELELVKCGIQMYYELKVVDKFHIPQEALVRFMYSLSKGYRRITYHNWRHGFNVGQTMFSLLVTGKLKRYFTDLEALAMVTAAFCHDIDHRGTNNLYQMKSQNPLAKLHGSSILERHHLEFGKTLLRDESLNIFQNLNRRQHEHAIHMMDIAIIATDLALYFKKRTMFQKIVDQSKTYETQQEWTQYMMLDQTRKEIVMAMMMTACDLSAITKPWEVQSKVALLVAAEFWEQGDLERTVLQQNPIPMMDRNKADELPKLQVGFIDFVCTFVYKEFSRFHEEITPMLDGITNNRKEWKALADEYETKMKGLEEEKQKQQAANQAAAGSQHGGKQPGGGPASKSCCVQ
Sequence of UniProt P42785 (whole entry, looked up): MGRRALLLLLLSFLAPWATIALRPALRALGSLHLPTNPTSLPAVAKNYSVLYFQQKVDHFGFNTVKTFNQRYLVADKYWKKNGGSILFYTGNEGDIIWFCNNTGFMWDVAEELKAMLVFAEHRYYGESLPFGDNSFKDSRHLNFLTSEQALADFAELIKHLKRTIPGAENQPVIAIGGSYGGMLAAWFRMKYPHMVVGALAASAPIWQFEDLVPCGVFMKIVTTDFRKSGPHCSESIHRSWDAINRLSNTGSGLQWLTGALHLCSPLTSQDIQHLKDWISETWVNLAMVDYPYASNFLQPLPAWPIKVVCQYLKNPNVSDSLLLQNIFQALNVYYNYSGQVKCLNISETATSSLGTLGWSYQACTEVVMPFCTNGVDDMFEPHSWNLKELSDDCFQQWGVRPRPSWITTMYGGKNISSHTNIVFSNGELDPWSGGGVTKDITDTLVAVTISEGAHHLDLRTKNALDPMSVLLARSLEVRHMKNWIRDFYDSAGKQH
Sequence of UniProt P23439 (whole entry, looked up): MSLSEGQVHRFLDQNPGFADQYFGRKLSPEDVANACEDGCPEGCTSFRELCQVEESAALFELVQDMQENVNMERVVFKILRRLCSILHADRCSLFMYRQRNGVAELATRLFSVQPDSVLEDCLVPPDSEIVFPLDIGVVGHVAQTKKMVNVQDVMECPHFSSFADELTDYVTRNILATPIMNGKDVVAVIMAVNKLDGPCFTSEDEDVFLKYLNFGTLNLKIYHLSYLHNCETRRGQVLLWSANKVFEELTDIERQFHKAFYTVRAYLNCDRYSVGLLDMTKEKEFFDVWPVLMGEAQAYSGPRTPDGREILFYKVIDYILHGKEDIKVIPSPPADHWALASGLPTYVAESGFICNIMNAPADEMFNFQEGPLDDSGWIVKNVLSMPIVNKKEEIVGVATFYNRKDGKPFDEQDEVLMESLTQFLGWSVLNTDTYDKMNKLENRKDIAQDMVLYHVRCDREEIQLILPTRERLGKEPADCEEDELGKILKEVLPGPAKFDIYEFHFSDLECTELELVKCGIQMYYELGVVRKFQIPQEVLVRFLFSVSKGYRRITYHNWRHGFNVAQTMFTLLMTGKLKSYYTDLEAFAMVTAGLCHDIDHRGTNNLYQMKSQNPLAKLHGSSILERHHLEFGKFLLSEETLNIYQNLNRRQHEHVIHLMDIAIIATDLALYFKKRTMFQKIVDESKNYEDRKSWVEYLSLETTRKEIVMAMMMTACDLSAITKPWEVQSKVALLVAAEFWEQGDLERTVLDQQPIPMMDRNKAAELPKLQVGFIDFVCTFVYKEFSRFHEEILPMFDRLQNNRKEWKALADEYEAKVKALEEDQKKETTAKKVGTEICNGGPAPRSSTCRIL
Sequence of UniProt Q5T601 (whole entry, looked up): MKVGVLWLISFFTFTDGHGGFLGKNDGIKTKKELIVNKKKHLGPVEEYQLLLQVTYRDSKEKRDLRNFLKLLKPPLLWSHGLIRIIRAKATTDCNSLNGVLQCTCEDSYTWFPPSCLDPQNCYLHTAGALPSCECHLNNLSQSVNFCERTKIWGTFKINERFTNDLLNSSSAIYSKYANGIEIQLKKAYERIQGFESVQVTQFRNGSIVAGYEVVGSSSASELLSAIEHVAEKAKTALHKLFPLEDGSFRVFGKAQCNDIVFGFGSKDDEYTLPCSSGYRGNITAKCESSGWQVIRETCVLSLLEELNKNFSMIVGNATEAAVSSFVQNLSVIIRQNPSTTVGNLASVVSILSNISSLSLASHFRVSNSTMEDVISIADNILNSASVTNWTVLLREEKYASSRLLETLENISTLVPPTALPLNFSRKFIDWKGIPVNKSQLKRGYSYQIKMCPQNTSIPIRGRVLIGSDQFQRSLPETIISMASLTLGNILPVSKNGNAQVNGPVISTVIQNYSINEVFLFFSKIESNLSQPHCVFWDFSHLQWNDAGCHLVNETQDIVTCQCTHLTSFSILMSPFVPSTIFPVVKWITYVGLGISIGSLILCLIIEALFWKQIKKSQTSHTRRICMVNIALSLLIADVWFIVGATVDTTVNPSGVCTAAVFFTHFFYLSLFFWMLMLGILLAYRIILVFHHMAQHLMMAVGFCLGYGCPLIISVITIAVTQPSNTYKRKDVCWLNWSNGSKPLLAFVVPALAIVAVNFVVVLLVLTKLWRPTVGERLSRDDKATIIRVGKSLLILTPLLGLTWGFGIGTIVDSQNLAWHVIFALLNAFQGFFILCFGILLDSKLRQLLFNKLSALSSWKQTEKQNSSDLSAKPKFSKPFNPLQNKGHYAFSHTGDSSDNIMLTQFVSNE

`C#Cc1nc(C(=O)N2CCC(NC(=O)c3cnc(-c4ccccc4)s3)(c3nc4ccccc4n3C)CC2)cs1` — result for IFNβ secretion: “inhibited” (STING (mouse); inhibitor, ELISA; iBMDMs; concentration not given, 24 h, added: 500 nM diABZI).
`CCCCC1(CCCC)CN(c2ccccc2)c2cc(SC)c(OCC(=O)N[C@@H](C(=O)NCC(=O)O)c3ccccc3)cc2S(=O)(=O)C1` gave a serum LDL-C of 75.4 mg/dL (refers to: LDL cholesterol; human, serum; 15 mg once daily, day 13).
`CC(C)N1CCC(NC2CCN(c3cccc(-c4cc5cc(F)ccc5[nH]4)c3)CC2)CC1` has a CC50 of 6.91 µM (SF-295).
`COc1ccc(N2C(=O)N(c3c(C)cccc3Cl)Cc3cnc(Nc4ccc(C5CCN(C)CC5)cc4OC)nc32)nc1` has an inhibition of 5.53% (CK1, human; kinase activity; 0.5 µM).
Under “log2 fold change”, `CC[C@H](C)[C@@H]1NC(=O)[C@@H]2CCCN2C(=O)[C@H](CC(C)C)NC(=O)[C@H](CC(C)C)NC(=O)CNC(=O)[C@@H](NC(=O)[C@@H](NC(=O)[C@H](CC(=O)O)NC(=O)CNC(=O)[C@@H](NC(=O)[C@H](C)NC(=O)CNC(=O)[C@H](CCCCN)NC(=O)[C@H](CC(C)C)NC(=O)[C@H](CC(C)C)NC(=O)[C@H](CCCCN)NC(=O)CNC(=O)[C@@H](NC(=O)[C@@H](N)CC(C)C)C(C)C)C(C)C)C(C)C)CSSC[C@@H](C(=O)O)NC1=O` is recorded as -3.23 (RNA-seq, refers to: Slfn1 mRNA; mouse traumatic brain injury, frontal cortex and hippocampus; dose not given; baseline: TBI plus compound vs TBI).
The IC50 of `COc1cc(Nc2ncc(F)c(Nc3ccc4c(n3)NC(=O)C(C)(C)O4)n2)cc(OC)c1OC` is reported as > 10 µM (PDE6A/PDE6B (Bos taurus, UniProt P11541+P23439)).
`C[C@]12CC[C@H]3[C@@H](CC=C4CC(O)CC[C@@]43CO)[C@@H]1CCC2O` (some centres unmarked): “liver TAG level” “decreased” (GAN diet MASH rats; ip, 20 mg/kg, two weeks; baseline: GAN vehicle).
Under “grade 1 or 2 Headache”, `COc1cc2c(Oc3ccc4[nH]c(C)cc4c3F)ccnc2cc1OCC1(N)CC1` is recorded as 20.6% (paediatric recurrent refractory sarcoma; concentration not given, whole group).
`COCC(=O)OCc1cc2[nH]c(=S)n(Cc3cccnc3)c(=O)c2cc1Cl` gave an MIC90 of 2.29 µM (≈ 0.929 µg/mL) (Mycobacterium tuberculosis; PptT conditional knockdown).
For `Nc1ncnc2c1ncn2[C@@H]1O[C@@H]2COP(=O)(O)O[C@H]3[C@@H](O)[C@H](n4cnc5c(=O)[nH]cnc54)O[C@@H]3COP(=O)(O)O[C@H]2[C@H]1O`, “pathway fold enrichment” read 12.4 (HFF-1; RNA sequencing Reactome analysis, refers to: Reactome R-HSA-5627117; added: West Nile virus infection; baseline: West Nile virus infected cells, downregulated pathway).
`C[C@@H]1C[C@@]2(N=CCS2)[C@]2(O)O[C@@H]3C[C@@]4(C=O)[C@@H](CC[C@@H]5[C@@H]4CC[C@]4(C)[C@@H](C6=CC(=O)OC6)CC[C@]54O)C[C@H]3O[C@@H]2O1` has a viability effect of 96% (Schistosoma mansoni; microscopic viability score; adult worms; 1 µM, 24 h).
For `Nc1c(C(=O)N2CCOCC2)sc2nc(Cl)ccc12`, the IC50 was > 100 µM (Mycobacterium tuberculosis; growth inhibition; H37Rv LepB under-expressing).
For `C[C@H]1CN(c2n[nH]c3nc(N[C@H]4CC[C@H](NS(=O)(=O)CCC(F)(F)F)CC4)ncc23)CCO1`, the relative abundance was 1.21 (Paxillin (PXN, Homo sapiens, UniProt P49023); competitor, Kinobeads competition, refers to: PXN; human cell extract; 20 µM; baseline: vehicle).
`CCOC(=O)C1CC(c2c[nH]c3ccccc23)c2c(ccc3c2OCO3)N1` (centres unmarked) has a viability reduction of 23.3% (Schistosoma mansoni; microscopic viability scoring; newly transformed schistosomula; 10 µM, 72 h, prescreen).
`CC[C@H](C)[C@H](NC(=O)[C@H](C)NC(=O)[C@H](CCCCN)NC(=O)[C@H](CC(C)C)NC(=O)[C@H](C)NC(=O)[C@@H](NC(=O)[C@H](Cc1c[nH]cn1)NC(=O)[C@H](CC(C)C)NC(=O)[C@@H](NC(=O)[C@@H](NC(=O)[C@H](CCCCN)NC(=O)[C@H](C)NC(=O)[C@H](C)NC(=O)[C@H](CO)NC(=O)[C@H](CCCCN)NC(=O)[C@H](Cc1ccccc1)NC(=O)[C@@H](NC(=O)[C@H](CCCCN)NC(=O)[C@H](CC(C)C)NC(=O)[C@H](Cc1ccccc1)NC(=O)[C@H](CO)NC(=O)[C@H](CCCCN)NC(=O)[C@H](Cc1c[nH]c2ccccc12)NC(=O)[C@H](CCCCN)NC(C)=O)[C@@H](C)O)[C@@H](C)O)C(C)C)[C@@H](C)O)C(=O)N[C@@H](CO)C(=O)N[C@@H](CO)C(N)=O` — result for “MIC geometric mean”: 3.17 µg/mL (≈ 1.08 µM) (Acinetobacter baumannii; IPM-S; 33 strains).
`CN1CCN(S(=O)(=O)c2cc([N+](=O)[O-])ccc2N(CCOS(C)(=O)=O)CCOS(C)(=O)=O)CC1`: “EFS delay (T-C)” > 142 days (NSG mice, sample CJ PDX; intraperitoneal, 25 mg/kg weekly x3; baseline: vehicle).
The viability reduction of `COc1ccc2c[n+](C)c3ccc(OC)cc3c2c1` is reported as 20% (Schistosoma mansoni; microscopic viability scoring; newly transformed schistosomula; 10 µM, 72 h, prescreen).
For `CO[C@H]1C[C@@H]2CC[C@@H](C)[C@@](O)(O2)C(=O)C(=O)N2CCCC[C@H]2C(=O)O[C@H]([C@H](C)C[C@@H]2CC[C@@H](OC(=O)NCCOCCOCCOCCOCCOCCOCCOCCOCCC(=O)N3CCc4cc(Cn5nc(-c6ccc7oc(N)nc7c6)c6c(N)ncnc65)ccc4C3)[C@H](OC)C2)C[C@@H](O)[C@H](C)/C=C(\C)[C@@H](O)[C@@H](OC)C(=O)[C@H](C)C[C@H](C)/C=C/C=C/C=C/1C`, the TRAE incidence was 0% (phase 1 dose escalation, refers to: vomiting; advanced solid tumour patients; intravenous, 6 mg weekly, grade ≥3).
The tissue uptake of `CC(C)[C@@H]1NC(=O)[C@H](Cc2ccccc2)NC(=O)[C@@H]2NC(=O)[C@H](Cc3ccccc3)NC(=O)[C@@H]3CCCN3C(=O)CNC(=O)[C@H](Cc3ccccc3)NC(=O)[C@@H]3CNCCCC[C@@H](C(=O)O)NC(=O)[C@@H]4NC(=O)[C@H](CC(N)=O)NC(=O)CNC(=O)[C@H]([C@@H](O)C(=O)O)NC(=O)[C@H](CSC[C@@H](NC(=O)[C@H](CCC(N)=O)NC(=O)[C@H](CCCCNC(=O)c5ccc(NN)nc5)NC(=O)[C@@H](N)CS[C@H]4C)C(=O)N[C@@H](CS[C@H]2C)C(=O)N3)NC1=O` [technetium-99m labelled] is reported as 1.21 ± 0.26 %ID/g (rat, saline control, liver; intravenous, 2 h after tracer, tracer 2 h after reperfusion).
`COc1ccc(-c2cc(C(F)(F)F)c3c(N)c(C(=O)Nc4cc(C)cc(C)c4)sc3n2)cc1` has an IC50 of > 100 µM (Mycobacterium tuberculosis; growth inhibition; H37Rv LepB under-expressing).
`COc1ccc(-n2nc(C(C)=O)s/c2=N\N=C(/C)c2ccc(NC(C)=O)cc2)cc1` gave a toxicity of 19.8% (WI-38; 0.078 µM).
With `COc1c(CCC[P+](c2ccccc2)(c2ccccc2)c2ccccc2)cc2c(c1OC)OCO2.[I-]` the GI50 was -5.58 log M (OVCAR-8; SRB).
With `CCNC(=O)c1sc2nc(-c3ccc(Cl)cc3Cl)cc(C(F)(F)F)c2c1N` the IC50 was > 100 µM (Mycobacterium tuberculosis; growth inhibition; H37Rv LepB under-expressing).
`O=C(c1ccc(Cl)cc1)N1CCN2C(=O)N(OC(=O)N3CCOc4ccccc43)C(=O)C2C1` (centres unmarked) has a median ratio of 1.13 (PRCP (Homo sapiens, UniProt P42785); enzyme activity, inhibitor, MS-based ABPP; SW-620 conditioned medium; 10 µM, 1 h, 37 °C; baseline: compound over DMSO, lower = stronger inhibition).
With `COc1cc(CCC[P+](c2ccccc2)(c2ccccc2)c2ccccc2)c(OC)c2c1OCO2.[I-]` the LC50 was > -4 log M (OVCAR-8; SRB).
`CC[C@H](C)[C@H](NC(=O)[C@H](Cc1ccccc1)NC(=O)[C@H](CCC(=O)O)NC(=O)[C@H](CCCNC(=N)N)NC(=O)[C@H](C)NC(=O)[C@H](C)NC(=O)[C@H](CCC(N)=O)NC(=O)[C@H](CCC(=O)O)NC(=O)[C@H](CCC(=O)O)NC(=O)[C@H](CC(C)C)NC(=O)[C@H](Cc1ccc(O)cc1)NC(=O)[C@H](CO)NC(=O)[C@H](CO)NC(=O)[C@@H](NC(=O)[C@H](CC(=O)O)NC(=O)[C@H](CO)NC(=O)[C@@H](NC(=O)[C@H](Cc1ccccc1)NC(=O)[C@@H](NC(=O)CNC(=O)[C@H](CCC(=O)O)NC(=O)[C@H](C)NC(=O)CCc1c[nH]cn1)[C@@H](C)O)[C@@H](C)O)C(C)C)C(=O)N[C@@H](C)C(=O)N[C@@H](Cc1c[nH]c2ccccc12)C(=O)N[C@@H](CC(C)C)C(=O)N[C@H](C(=O)N[C@@H](CCCNC(=N)N)C(=O)NCC(=O)N[C@@H](CCCNC(=N)N)C(=O)N[C@@H](CCCCNC(=O)COCCOCCNC(=O)COCCOCCNC(=O)CC[C@H](NC(=O)CCCCCCCCCCCCCCCCC(=O)O)C(=O)O)C(=O)NCC(=O)NCC(=O)N[C@@H](CO)C(=O)N[C@@H](CCCCNc1c(NCCCCCN(O)C(=O)CCC(=O)NCCCCCN(O)C(=O)CCC(=O)NCCCCCN(O)C(C)=O)c(=O)c1=O)C(=O)O)C(C)C` [zirconium-89 labelled] gave a tissue uptake of 0.16 %ID/g (rat, heart; iv, 3 nmol/kg, 24 h, ex vivo).
`Oc1ccc2c3c1O[C@H]1[C@@H](O)CC[C@@]4(O)[C@@H](C2)N(CC2CCC2)CC[C@]314` — result for “log2 fold change”: 0.307 (ADGRF1 (Homo sapiens, UniProt Q5T601); β-arrestin recruitment, TANGO luminescence, refers to: GPR110; concentration not given; baseline: basal luminescence).
For `C[C@@H](O[C@H]1OCCN(Cc2n[nH]c(=O)[nH]2)[C@H]1c1ccc(F)cc1)c1cc(C(F)(F)F)cc(C(F)(F)F)c1`, the IC50 was 7.13 µM (Human immunodeficiency virus 1; viral replication; PBMC, CRF01_AE isolate from Indonesia, R5, NSI).
With `Oc1ccc(-c2cc(Cl)ccc2Cl)c(Cl)c1` the IC50 was 11 µM (gap junction, rat; gap junctional communication, scrape loading dye transfer; WB-F344 rat liver epithelial; 1 h).
`CC(C)C[C@@H]1NC(=O)[C@H](CC(C)C)NC(=O)[C@H](Cc2c[nH]c3ccccc23)NC(=O)[C@H](CO)NC(=O)[C@H](Cc2c[nH]c3ccccc23)NC(=O)[C@@H]2CCCN2C(=O)[C@H](CC(C)C)NC(=O)[C@H](Cc2c[nH]cn2)NC(=O)[C@@H]2CCCN2C(=O)[C@H](CC(N)=O)NC(=O)[C@H](C)NC(=O)[C@H](Cc2ccc(O)cc2)NC(=O)[C@H](CS)NC(=O)[C@H](CCCCNC(=O)CN2CCN(CC(=O)O)CCN(CC(=O)O)CCN(CC(=O)O)CC2)NC1=O` [lutetium-177 labelled] gave a tissue uptake of 0.81 %ID (Balb/c mouse, female, 4T1 tumour, intestine; intravenous, 3.7 MBq, 96 h).
`CC[C@H](C)[C@H](NC(=O)[C@H](CCCCN)NC(=O)[C@@H](NC(=O)[C@@H](NC(=O)[C@H](CC(C)C)NC(=O)[C@H](CCCNC(=N)N)NC(=O)[C@@H](NC(=O)[C@H](CC(C)C)NC(=O)[C@H](CCCNC(=N)N)NC(=O)CNC(=O)[C@H](Cc1ccccc1)NC(=O)[C@@H](N)CCCNC(=N)N)[C@@H](C)CC)[C@@H](C)CC)C(C)C)C(=O)N[C@@H](C)C(=O)N[C@@H](CCCNC(=N)N)C(=O)N[C@@H](CCCNC(=N)N)C(=O)N[C@@H](C)C(=O)N[C@@H](Cc1c[nH]cn1)C(=O)N[C@@H](CCCNC(=N)N)C(=O)N[C@@H](C)C(=O)N[C@@H](CCCNC(=N)N)C(=O)N[C@@H](CO)C(=O)N[C@@H](C)C(=O)N[C@H](C(=O)N[C@@H](CCCCN)C(=O)N[C@@H](C)C(=O)N[C@@H](C)C(=O)N[C@@H](CO)C(=O)N[C@@H](CC(N)=O)C(=O)N[C@H](C(=O)N[C@@H](C)C(=O)N[C@@H](CCC(=O)O)C(=O)N[C@@H](CC(C)C)C(=O)N[C@@H](C)C(=O)N[C@@H](Cc1c[nH]cn1)C(=O)NCC(=O)N[C@@H](CCC(=O)O)C(=O)O)C(C)C)C(C)C` gave an EC50 of 0.19 ± 0.06 µM (SH-SY5Y; intracellular calcium increase, calcium dye fluorescence; 600 s).
`Cc1ccc(NC(=O)c2sc3nc(-c4ccccc4)cc(C(F)(F)F)c3c2N)cc1` has an IC50 of > 100 µM (Mycobacterium tuberculosis; growth inhibition; H37Rv LepB under-expressing).
`CC(C)n1ncc2c(C(=O)NCC3(C)CNC3)cc(C3CC3)nc21` gave an EC50 of 0.13 µM (Enterovirus D68; viral replication, plaque; US/MO/14-18947 recombinant wild type).
`C[C@@H](O)[C@@H](CO)NC(=O)[C@@H](CCCNC(=N)N)NC(=O)[C@@H]1CCCN1C(=O)[C@@H]1CSSC[C@H](NC(=O)[C@H](Cc2ccccc2)NC(=O)CN2CCN(CC(=O)O)CCN(CC(=O)O)CCN(CC(=O)O)CC2)C(=O)N[C@@H](Cc2ccc(O)cc2)C(=O)N[C@@H](Cc2ccccc2)C(=O)N[C@@H](CCC(N)=O)C(=O)N[C@@H](CC(N)=O)C(=O)N1` [gallium-68 labelled] has a tissue uptake of 0.31 %ID/g (Wistar rat, spleen; intravenous, 8 MBq, 30 min, group mean).
`COc1c(C)c2c(c(O)c1C/C=C(\C)CCC(=O)O)C(=O)OC2` has an IC50 of 2.95 µM (BXPC-3; cell proliferation; pancreas cancer).
